{"data": "Published values gathered from unrelated publications", "note": "Each line is one published result; not all experiments were run side by side."}
{"Compound": "Cc1cc(NC2CCN(C(=O)OC3CCN(C(=O)/C=C/CN(C)C)C3)CC2)n2ncc(C(C)C)c2n1 (stereo not shown)", "assay": "Phase I dose escalation CTCAE v4.0, measured: abdominal distension", "system": "patients with advanced solid tumours", "setting": "dose not given, Total dosing grade 3 or higher", "endpoint": "patients with adverse event", "result": "0%"}
{"Compound": "FC(F)(F)c1ccc(CNc2ccc(Cc3c[nH]c4ncc(Cl)cc34)cn2)cn1", "assay": "measured: weight increased", "system": "adult patients with TGCT", "setting": "oral, 1000 mg/day, grade 3 or higher", "endpoint": "patients with treatment-related adverse event", "result": "0%"}
{"Compound": "Cc1cc(-c2nnc(N)nc2-c2ccc(F)cc2)cc(Cl)n1", "assay": "measured: rash", "system": "post-IO NSCLC patients", "setting": "oral, 100 mg once daily, treatment-related, grade 2", "endpoint": "patients with immune-mediated AE", "result": "0%"}
{"Compound": "O=C(Nc1nc2cccc(-c3ccc(CN4CCS(=O)(=O)CC4)cc3)n2n1)C1CC1", "system": "rheumatoid arthritis patients", "setting": "oral, 100 mg twice daily, 4 weeks, regardless of relatedness", "endpoint": "patients with injection site hematoma", "result": "0%"}
{"Compound": "C[C@@H](Nc1cc(F)cc(F)c1)c1cc(C(=O)N(C)C)cc2c(=O)cc(N3CCOCC3)oc12", "assay": "measured: Vomiting", "system": "advanced solid tumour patients", "setting": "oral, dose not given, dose finding", "endpoint": "patients discontinuing for AE", "result": "1.6%"}
{"Compound": "COc1cc(Nc2ncc3c(n2)-c2ccc(Cl)cc2C(c2c(F)cccc2OC)=NC3)ccc1C(=O)O", "assay": "measured: Anemia, all grades", "system": "cancer patients, phase 1/2", "setting": "oral, dose not given, added: pembrolizumab", "endpoint": "patients with adverse event", "result": "79%"}
{"Compound": "CCOc1c([C@H](C)n2nc(C)c3c(N)ncnc32)cc(Cl)c(F)c1[C@@H]1CNC(=O)C1", "assay": "measured: QTcF change ≤30 ms", "system": "previously treated B-cell malignancy", "setting": "oral, 45 mg once daily, baseline QTcF ≤450 ms", "how to read": "relative to: baseline", "endpoint": "patients", "result": "100%"}
{"Compound": "C=CC(=O)Nc1cc(Nc2nccc(-c3cn(C)c4ccccc34)n2)c(OC)cc1N(C)CCN(C)C", "assay": "measured: treatment-related grade ≥3 Myalgia", "system": "EGFR-mutant MET-altered NSCLC", "setting": "oral, dose not given, all", "endpoint": "patients with adverse events", "result": "2%"}
{"Compound": "CNC(=O)c1cc(Oc2ccc(NC(=O)Nc3cc(C(C)(C)C)nn3-c3ccc4ncccc4c3)c(F)c2)ccn1", "system": "patients", "setting": "oral, dose not given, cycles 1 and 2, Medium AUC subgroup", "endpoint": "patients with grade 3 musculoskeletal disorders", "result": "29%"}
{"Compound": "CNC(=O)c1ccc(-c2cnc3ncc(Cc4ccc5ncccc5c4)n3n2)cc1F", "assay": "measured: Asthenia", "system": "cancer patients", "setting": "oral, 600 mg twice daily, all expansion cohorts, grade 3-4", "endpoint": "patients with adverse event", "result": "0%"}
